Measurements collected from several papers.
Each line is one published result; not all experiments were run side by side.
Target: Vascular endothelial growth factor receptor 1 (FLT1, Homo sapiens, UniProt P17948)

Nc1ncc2c(n1)-c1c([nH]c3ccc(C4=CCOCC4)cc13)CCC2 — remaining binding (binding, competition with immobilised ligand; 1 µM): 100%
Cc1[nH]nc2c1N=C(c1ccccc1Cl)c1cnc(N3CCOCC3)cc1N2 — inhibition (enzyme activity, inhibitor; 0.5 µM): 94%
COc1ccc(NC(=O)Nc2ccc3c(c2)C(=O)N(C(C)CO)CC(C)C(CN(C)Cc2ccc4c(c2)OCO4)O3)cc1 (stereo not drawn) — remaining activity (kinase activity; 0.03 µM; reference: control): 90%
O=C=[N][Ru-4]123([n]4c5ccc(O)cc5c5c6c(c7cc(F)c[n+]1c7c54)C(=O)NC6=O)[S+]1CC[S+]2CC[S+]3CC1 (stereo not drawn) — remaining activity (enzyme activity; 100 nM, human enzyme, with: 10 µM ATP; reference: untreated): 64%
COc1c(OCCCN2CCOCC2)ccc2c1N=C(NC(=O)c1cnc(N)nc1)N1CCN=C21 — remaining activity (kinase activity, inhibitor; 1 µM; reference: untreated control): 116%
CCn1cc(C(=O)O)c(=O)c2c(N)c(F)c(NC3CCCCC3)cc21 — inhibition (kinase activity; 0.1 µM, with: ATP at Km): 14.8%
COc1c(Cl)cccc1Nc1c(-c2ccncc2C#C[C@@]2(C)CCCN2C(=O)/C=C/CN(C)C)[nH]c2c1C(=O)NCC2 — remaining binding (cell-free assay, competition with immobilised ligand; 3 µM): 83%
Cc1cccc(-c2ccc3nc(NC(=O)C4CCCCC4)nn3c2)c1 — remaining activity (enzyme activity, Dundee kinase panel; 10 µM): 53%
COc1cc(Nc2nccc(-c3cnn4nc(OC)ccc34)n2)cc(C(F)(F)F)c1 — remaining binding (binding, competition with immobilised ligand; 1 µM): 100%
CN1CCN(Cc2ccc(-c3ccc(CO[C@H]4CCC[C@@H]4NC(=O)c4cc(-c5cnn(C)c5)cnc4N)cc3)cc2)CC1 — inhibition (enzyme activity, inhibitor; 0.1 µM): 3%
CC(C)=CC1OC(C)(C)C2C=C3C(=O)C(Cl)=CC(O)C3C3C(O)C4OC4C(=O)C132 (stereo not drawn) — remaining binding (cell-free assay, competition with immobilised ligand; 10 µM): 90%
Cc1ccc(C(=O)Nc2cccc(C(F)(F)F)c2)cc1Nc1cncc(C(N)=O)c1 — remaining binding (binding, competition with immobilised ligand; 1 µM): 33%
Cc1cccc(O[C@H]2CCC[C@@H](C(C)CNCc3ccncc3)C2)c1 (relative stereo) — inhibition (cell-free assay; 10 µM): 3%
NC(=O)C[C@H]1CCc2sc3ncnc(O[C@H]4CC[C@H](N5CCOCC5)CC4)c3c21 — inhibition (enzyme activity, inhibitor; 10 µM): 15%
CCN1CCN(Cc2ccc(C(=O)Nc3ccc(C)c(NCc4cnc5[nH]ccc5c4OC)c3)cc2C(F)(F)F)CC1 — remaining binding (binding, competition with immobilised ligand; 1 µM): 9.2%
COc1cc(OC)c(F)c(/C=C/c2cnc3ccn(S(=O)(=O)c4cn(CCF)cn4)c3n2)c1F — inhibition (1000 nM): 2.2%
C=CC(=O)Nc1cccc(-c2cnc3[nH]cc(C(=O)NC(C)(C)C)c3n2)c1 — inhibition (enzyme activity, inhibitor; 0.1 µM): 4%
O=C(Nc1ccc(Oc2ncnc3[nH]cc(-c4ccccc4)c23)c(F)c1)c1c2n(n(-c3cc(F)ccc3F)c1=O)CCCC2 — inhibition (enzyme activity, inhibitor; 0.5 µM): 21%
CNC(=O)C[C@H](Cc1ccc(C#N)cc1)NC(=O)c1cc(-c2ccc(CN[C@H](C)c3ccc(C)cc3)o2)ccc1Cl — activity vs control (enzyme activity, inhibitor; 1 µM): 92%
c1ccc2c(Nc3cc(C4CCC4)[nH]n3)nc(Nc3ccc4nc[nH]c4c3)nc2c1 — remaining activity (enzyme activity, inhibitor; 0.25 µM): 2%
Cc1cccc(-c2ccc3nc(NC(=O)C4CCOCC4)nn3c2)c1 — remaining activity (enzyme activity, Dundee kinase panel; 10 µM): 74%

Repeated from above:
c1ccc2c(Nc3cc(C4CCC4)[nH]n3)nc(Nc3ccc4nc[nH]c4c3)nc2c1 — remaining activity (enzyme activity, inhibitor; 0.25 µM): 2%
Cc1cccc(-c2ccc3nc(NC(=O)C4CCOCC4)nn3c2)c1 — remaining activity (enzyme activity, Dundee kinase panel; 10 µM): 74%
